Measurements pooled from the literature.
Every numbered part comes from another study and shows a few of its results, in no order.

Study 1
Target: Histone acetyltransferase KAT6A, winged helix 2, GST fusion (KAT6A, Homo sapiens, UniProt Q92794, residues 85-181)
Technique: protein binding microarray
Form: double-stranded DNA, one strand shown
Matrix: in vitro
Concentration: not given
Setting: 8-mer, flanks averaged, mean of 2 arrays, mostly near background
Relative to: not given
Direction: higher = stronger binding
Target sequence (chain): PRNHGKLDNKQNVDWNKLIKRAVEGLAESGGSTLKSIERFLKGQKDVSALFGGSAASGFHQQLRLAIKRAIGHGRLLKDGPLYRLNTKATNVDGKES
Oligonucleotide | E-score
GATGGGAA | -0.106
ATGTGGAG | -0.0388
CGCTTGCA | 0.0475
ATGTGAAA | -0.0407
ACACCCTG | 0.132
ATGGGCGA | -0.0132
GACTGTCC | -0.17
CGGAGGCC | 0.0468
ACTAGCTC | 0.0476
AGTGGGAT | 0.00611
ATGTTCTA | -0.137
CCTCGCCC | 0.0914
AAACCGGA | 0.0843
CCGTACAA | -0.0812
AGACTCAA | -0.0415
CTTAAATA | -0.0939

Study 2
Target: Interferon regulatory factor 5, full length, phosphomimetic (IRF5, Homo sapiens, UniProt Q13568-2, residues 1-514, S451D/S453D/S456D/S462D)
Technique: protein-binding microarray
Form: double-stranded DNA, one strand shown
Matrix: in vitro
Concentration: 940 nM top
Setting: 60-bp whole probe
Together with: salmon DNA 0.4 mg/ml
Relative to: random background probes
Direction: higher = stronger binding
Constant ends, left off below: GCCTAGCAC … GTCTTGATTCGCTTGACGCTGCTG
Oligonucleotide | fitted relative affinity [z-score]
ATTTTTTTCATTATTGTTTCGTGCTAG | 2.38
CTAGGTTTCGGGACTGGGTTAGTGCTA | 6.86
GACGAACTGAGTCTCGATACGTGCTAG | 2.98
TTAGGTTTCGGTTTCGCTTAGTGCTAG | 15.8
TCACTTATCCAATCAGAACTGTGCTAG | 0.353
GACGGACTGGGGTTTCGGGACGTGCTA | 2.05
GACGGTATCGCACTGGGGACGTGCTAG | 1.45
GGGCATTTAGAAAATGGAAATGTGCTA | -0.33
TTAGGTCACGGTCTCGGTTAGTGCTAG | 1.61
GTGGCAGGCCCTCGGGCTCCGTGCTAG | -1.28
GACGAACTGGGGGATCGAGACGTGCTA | 0.892
GACGGACTTCTTCTCCTGACGTGCTAG | 0.245
GACGGTATCGGTTTAGGGACGTGCTAG | 8.45
GACGATTTCGGGTATCGAGAAGTGCTA | 1.47
TTAGAACTGAGGTATCGATTAGTGCTA | 2.08
GACGATCTCAGACTGGAGACGTGCTAG | -0.492
GACGGACTGGGTTTCTGGACGTGCTAG | 0.227
GTCGGTATCGGTATCGGGACGTGCTAG | 11.3
GACGGACTGGACTTTCGGCACGTGCTA | 0.312

Study 3
Target: RNA binding protein fox-1 homolog 2, RRM domain, GST-SBP tag (RBFOX2, Homo sapiens, UniProt O43251-10, residues 100-194)
Technique: RNA Bind-n-Seq
Form: RNA
Matrix: in vitro
Concentration: 365 nM
Setting: natural RNA segment, single round, ends assumed
Relative to: no-protein control
Direction: higher = stronger binding
Constant ends, left off below: GGGAGUUCUACAGUCCGACGAUC … UGGAAUUCUCGGGUGCCAA
Residues (chain): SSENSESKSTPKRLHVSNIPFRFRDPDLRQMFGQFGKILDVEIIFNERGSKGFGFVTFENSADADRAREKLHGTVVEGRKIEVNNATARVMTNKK
Oligonucleotide | RBNS enrichment (R)
CAGACUCACUCAACCUCCAGAGAGAGGAGCCAAGCCUAUGGGAAGUGGGGAGGGACUGCCUGAGGCCGCAGCUGGUGGGCCUCCUGCAUGUACUAGCAUCCGCAUUCCUC | 23.1
CAAGCUUGAAAAAUGAUUUCCCAGUAGACAAGAGGCCCCCACCCAUCCUCCAAUUGUGUUUAUUUACAUGAGAAGAUCAUACAAAAGCCCUCCGCUCUAGUCCUAGCAGG | 0.455
UCUCAUUCUUGGUGCAACUGGCUUCCAGCUCUCCAGCAGUCACUCUCCUAGGUGCAUGAUUCAGUGCGUGCCAUGUGUCAUUAGCUUUUACUGAUAACCAUAUUCUGGCU | 1.31
UGAUAGCAGAAUUGCAUUGUGUGAACUGUGUAACUUUAGUAAUGUAAAUCAAGGAACAUCAGUUAAGAGAUUUCCUAAUUUAUUUUUUAACUGAAUAAAUAUCAGUUAAA | 0.689
ACCAGGCCCAACACCCACCCUGCCUGGCUCCUCUCCUCAUCCAGACUAACUCUACUGUGAAGUCCCACCACAUUCCAGGUUGGAAUUUUAGAUUCAGGGUGGAUUUUCCC | 0.519
CAUCUCAGGGCCUCACUUUCUGCACACACCUCCCUGCCUGAGAGCAGACACAAACAGGCCCAUAGCCUCUCCUCUGCUGUUAGAGCAAUGCAGCUGGGCCCAGAACACCC | 0.341
UUUAUUUUUUAACUAAAGCUAUAUAAAGCUUGUGGAUUAAACAGAAUAAAUUUCUAAAUUUAAGAACUUGCCACUCACAUUUAUUCGCCUGCAGGGGAGGACGGAGUUCA | 1.26
AUAUAUGACGGUAUAUUUGCAAAAAGAGAAAGAAAAAUCUGGUAUUUGCAAUGAUCUGUGCCUUCUUUCUACCACCCUCUUGAUUGGAGCUUUUGUGAUGCAGCUACCAU | 4.29

Study 4
Target: RING finger protein unkempt homolog, zinc fingers 1-6, GST-SBP tag (UNK, Homo sapiens, UniProt Q9C0B0, residues 30-357)
UniProt Q9C0B0, sequence (30-357, looked up): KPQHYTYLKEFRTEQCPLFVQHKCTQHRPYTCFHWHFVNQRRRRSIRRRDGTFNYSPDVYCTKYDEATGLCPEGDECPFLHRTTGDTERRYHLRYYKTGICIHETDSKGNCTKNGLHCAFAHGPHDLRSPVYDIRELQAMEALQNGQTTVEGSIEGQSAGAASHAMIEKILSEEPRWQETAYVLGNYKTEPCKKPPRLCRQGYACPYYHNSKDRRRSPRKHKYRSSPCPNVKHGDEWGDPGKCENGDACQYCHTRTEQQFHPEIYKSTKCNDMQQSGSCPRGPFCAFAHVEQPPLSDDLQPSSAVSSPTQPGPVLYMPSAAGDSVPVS
Technique: RNA Bind-n-Seq
Form: RNA
Matrix: in vitro
Concentration: not given
Setting: RNA with constant flanks, human-mouse chimeric sites, ends assumed
Relative to: input RNA pool
Direction: higher = stronger binding
Constant ends, left off below: GGGAGUUCUACAGUCCGACGAUC … CAACAGAGGAUUGAGCAUCA
Oligonucleotide | bound/input enrichment [ratio]
AUUGUUGAAGCGAAUCCACUUUUAGAAGCCUUUGGAAAUGCAAAGACUGUUCGCAACAAUAAUAGCAGUCGAUUUGGGAAAUUUGUAGAAAUUCAUUUCAAUGAAAAGAGUUCGGUUGUU | 0.346
AGAUUCCCUCUCUUAAAACCUCCUCCGAAAUUGGCAUCUCUUACAGAUGCCUCAUCCCCUGUUAGCGUUUUAGUUUGGACCACCCAGCCUUGGACAAUUCCCGCCAACCAGGCAAUUUGC | 0.71
AUGGAGAAGGAUUCUCUGCCCCGCUUUGUGCGCUCUGAAUUUUAUAAGGAGCUAAUCAAGUAGUCAUUUAGCCAGGCUUCCAAAAGUUCCUGUGAGUGUUGAGUUACAUCCUUUGUAGCA | 0.82
AAAGAGUGGAUAGAGUGUGCACAUGGAAUCGGUGGGACCCGGGCGAAAAAGGAGUGCAAGAUAGAGUUCGAUGACUUCGAAGAGUGCUUGCUUCGGUAGAAAACGAUGAGGCGAAUGCAU | 0.6
AUCAAAUACUUUGGGGACAUCAUUAGUGUGGGACAGAGACUGUUGCAAGGGGCCCGGAUUUUAGGAAUUCCAGUUAUCAUAACGGAACAAUACCCCAAAGGACUUGGCAGCACCGUUCAA | 0.405
AAAGUGGACUAUGGCGAAUACAUGGAUAAAAACAAUGUGAGGCGGCAAGCAACAACAAUCAUAGCUGAUAACAUUAUAUUUCUGAGUGACCAGACGAAAGAAAAGGCAUAGAACGGAUGA | 1.76
GCAGGAUCUUCUAAGUACCAGUGGGACAUUAUGAAAUCCCUUGGCCUCUCUGAUGACGACAUAGUGAAGUUUUCUGAAGCAGAGCACUGGCUUGAUUAUUUCCCACCACUGGCCGUUCAG | 0.161
UUACCCGAGAACGAGGAUGAAUUGGAGAGCACCAACAGGCGCUACACCAAGAGGGACUGCAGCACUUUUCUCAGAACUAGUGAGACGGGCAUCGUGGACCAGGUCAUGGUCACUCUCAAC | 0.164
